Published values gathered from unrelated publications.
Every numbered part comes from another study and shows a few of its results, in no order. Positions count from the first letter of the parent shown.

Sample 1
Target: RNA binding protein fox-1 homolog 2, RRM domain, GST-SBP tag (RBFOX2, Homo sapiens, UniProt O43251-10, residues 100-194)
Technique: RNA Bind-n-Seq
Form: RNA
Medium: in vitro
Concentration: 365 nM
Notes: natural RNA segment, single round, ends assumed
Relative to: no-protein control
Direction: higher = stronger binding
Quantity: RBNS enrichment (R)
All sequences stand within: GGGAGUUCUACAGUCCGACGAUC … UGGAAUUCUCGGGUGCCAA
Construct (chain): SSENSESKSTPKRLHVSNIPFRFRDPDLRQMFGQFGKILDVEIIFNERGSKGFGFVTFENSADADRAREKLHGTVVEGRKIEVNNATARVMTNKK
AGAGAAAAACCAGUGCUUCCUACUGCACAUGACUGACUCAGCUCCGCCACACGUAGCACCACUGUAACCACUGCUUUCUCUUCAAGUUUCAUUUUUUUCCUUUGAUUGAU: 0.429
CUAGGGGUAGGCGAUUGACUGCCUGAUUUUAGAGCAGGGAGCCCGGCCCCUUCUUUUGUCUUCCUGGCAGGAAAGCAAGACAGUGAGCCAUGCCCUAAAACACUCACACC: 0.378
UGUGUCGCCCUAUAUUGAGGGCUCAAGCUUUCCCUUGUUUUUUGAAAGGGGUUUAUGUAUAAAUAUAUUUUAUGCCUUUUUAUUACAAGUCUUGUACUCAAUGACUUUUG: 0.347
GAAUGUUACAAUGGUAAAAUGAGUGAUCUCAAAUCCACUGACAGAUAUAAAAUAGGCUUAGAGAGGAAAAGCUGCCUCUGGUCAAGUAGAUCAUGGCAGCAUGAAUUCCA: 0.325
AAUGGGUAAUAAGGUGCAAAAUAAAGGGGUAAGGGGGGAGUUUUCUAUCUGUCCUGUUCUCUGUUAUCUCCAAGUCCUGAUUCUGUUGCCUCCAGCCCGAGCCUCCUCUC: 0.217
AUAUUGAUUAAAAUGUACCACUAGAAAGGUAUUACAUGUGUAUAAGUAUGGGUAAAAAGGCAAGUCACUAGUUUGAGAUGAAAACUAAAAUUUUCAUGGUAAAAUGCCAG: 0.832
UCGUACAGUUGGGAUAGGAGGCCAUUCAUUCCCAUGGGCACAGCUAACAUUAUCCCCCAGUGAUUACUUUCGAUUACACUGAAGAGACCACCUUGUCUUUAAAGAUCACU: 0.298
UAGCUGGGUUUAUUCAAAGUGGGCGGGUCUGGGCUAUUCUUGAGAAUGUCCCUUCCAUUUCUGAGAACAAGUCAGCCCCUUCUACCUGCCUCCACCCAGGAGACUGAUGC: 0.396
UUCCCUCACACACUGUGACUAUUGGGAGACUGCGCCAGUUAGCAGUAGUUCACUCAGCCUUGAUUGUACUGCAAGGGCGAGACAAAAAUAAACGGGAAACGUGCUGUUCA: 0.629
UACUGUGCCCUUUCUUCCCAUCACCUUGCUCUCUCUGGCUCUGUCUCUUCUUGCUGUCUCUCUCCUUUUAGCAGUCACUUCUGAGAAGUAAAGAACCUGACUUAGUGCUG: 0.442
GUUAAGAGCUGAGCACACCACAGGAAAGGAGGGAGGAUGCUGUGUGAGAGCCAUGCUGUCAGGAGCAAGCUUGCUGCUCCUGUGCUGCCCUGGCCCUGGCCUUGCUUGCC: 0.784
ACAGGAUGCAACUAUUCCCAAUCCUUUCCAGAAUGUCACUCACUCCCUUGGGCUGUUGUGGGAAAAUAUGGAGGCUGGCACCAAAUUUCAUAGUUUGGGAGAUGGACAUU: 0.518

Sample 2
Target: RING finger protein unkempt homolog, zinc fingers 1-6, GST-SBP tag (UNK, Homo sapiens, UniProt Q9C0B0, residues 30-357)
Chain of UniProt Q9C0B0 (30-357, looked up): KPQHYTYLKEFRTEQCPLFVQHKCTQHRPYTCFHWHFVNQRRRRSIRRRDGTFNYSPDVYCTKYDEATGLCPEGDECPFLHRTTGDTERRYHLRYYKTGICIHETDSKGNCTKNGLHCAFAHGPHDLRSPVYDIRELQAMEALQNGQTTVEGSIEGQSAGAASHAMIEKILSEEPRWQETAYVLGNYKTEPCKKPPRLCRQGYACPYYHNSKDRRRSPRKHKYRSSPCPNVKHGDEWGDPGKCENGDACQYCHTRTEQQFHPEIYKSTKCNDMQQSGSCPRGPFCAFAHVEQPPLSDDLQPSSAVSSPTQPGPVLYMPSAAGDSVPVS
Technique: RNA Bind-n-Seq
Form: RNA
Medium: in vitro
Concentration: not given
Notes: RNA with constant flanks, ends assumed
Relative to: input RNA pool
Direction: higher = stronger binding
Quantity: bound/input enrichment
All sequences stand within: GGGAGUUCUACAGUCCGACGAUC … CAACAGAGGAUUGAGCAUCA
GUGGCAGACGCUGUCACUUACCAGCUUGGUUUCCACAGUAUUGAACUGAACGAGCCUCCACCCGUCCACACAGCCGCCAGUCUCUUUAAGGAGAUGUGUUACCGGUACAGAGAAGAUCUG: 0.123 ratio
AACAAAAAUCAAGAGAAUGUUUCUCAUCUCUCAGUUUCUUCUGCUUCACCAACAUCAUCUGCCGCAUCAGCUGCAGGAAGCAUAACAAGCUCUAGUCUGCAGAAAUCUCCUACAUUGCUC: 0.147 ratio
CCAGGUGUGCCCGGCUAAUGGUAUUACUGAGAGAGAGAGGCGUAAGAACUCUUAUUUAUUACCGAAAGGAUUUGGGGAAUGUGGGUCUAAGGGCUGGGGGUGUGGGUUAGUGGUGUGCAU: 2.22 ratio
GUUAUUGAAAAACUGUUAACCUCUUACGGAUUUAUUCAGUGUUCAGAACGUCAAGCCCGACUUUUCUUCCACUGUUCACAGUAUAAUGGCAACCUGCAAGACUUAAAAGUAGGAGAUGAU: 0.253 ratio
GGUAAGACUGAGGCACCAGUGAGUGAGCAAACCACUUUAGGCCAGGAGAAUUACAUAUUCUCCCGAGGCCAAGCAUCUGAUGAAAAGAGCCUGCCUAGAGAUUUUAUUCCGGCAGCACAU: 0.136 ratio
GCUGCUACAUUCAGUUUUUUAAUAUCCUAUGGUCAUGAUGCAAUCUUGUGAAUGGCCUUGUCCGUUACAAUGUGGUUUGGAUGGGAAGUGUCCCACCUGUAGACUCACGUCUUUGAACAU: 0.268 ratio
AACAGGAUCAGUUAAUUAUUCCAUUUAUACCUACUGUAGGCUUUUUAUUCAACAGUUAUCUGCCGCUUAAGUACAUGAUAGGCAAAAACAAAGAGAAAAGAAAUGUUUUUGUAGUAGUGG: 1.31 ratio

Sample 3
Target: Histone acetyltransferase KAT6A, both winged helices, GST fusion (KAT6A, Homo sapiens, UniProt Q92794, residues 1-181)
Technique: protein binding microarray
Form: double-stranded DNA, one strand shown
Medium: in vitro
Concentration: not given
Notes: 8-mer, flanks averaged, mean of 2 arrays, mostly near background
Relative to: not given
Direction: higher = stronger binding
Quantity: E-score
Residues (chain): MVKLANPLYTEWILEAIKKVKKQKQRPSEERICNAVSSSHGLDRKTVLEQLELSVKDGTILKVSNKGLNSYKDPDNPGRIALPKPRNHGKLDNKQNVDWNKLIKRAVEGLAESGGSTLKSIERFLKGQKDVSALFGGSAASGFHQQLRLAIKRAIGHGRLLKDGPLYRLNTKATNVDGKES
CATCTTGC: -0.093
CACGCGTG: 0.231
CTGGCAAG: -0.185
CATCCCCA: -0.229
GAACTCTC: -4e-05
AGGTGACA: -0.0754
CACAGAGA: -0.182
CAGTCTTC: -0.0447
ATGGGTGC: -0.055
GTGTTGGA: -0.24
ACCTGACG: 0.0201
CCGATGGC: 0.0966
AAATACCA: -0.165
ACGCGCAA: 0.361
CCACTATC: -0.18
ACGGCATC: 0.292
GACGCATA: 0.208
CGCCATCA: 0.0549
GGACAAAA: 0.0629
AAGACTGT: -0.0766
ATAGGGCA: -0.218
AGTCCTAG: -0.258
ACTTTTCT: -0.267
ACAGGTGA: -0.166
CAAACAAC: -0.00697

Sample 4
Target: Interferon regulatory factor 7, full length, phosphomimetic (IRF7, Homo sapiens, UniProt Q92985, residues 1-503, S101K/S471D/S472D/S475D/S476D/S477D/S483D/S484D/S487D)
Technique: protein-binding microarray
Form: double-stranded DNA, one strand shown
Medium: in vitro
Concentration: 250 nM
Notes: 60-bp whole probe
Together with: salmon DNA 0.4 mg/ml
Relative to: random background probes
Direction: higher = stronger binding
Quantity: log fluorescence
All sequences stand within: GCCTAGCAC … GTCTTGATTCGCTTGACGCTGCTG
Construct (chain): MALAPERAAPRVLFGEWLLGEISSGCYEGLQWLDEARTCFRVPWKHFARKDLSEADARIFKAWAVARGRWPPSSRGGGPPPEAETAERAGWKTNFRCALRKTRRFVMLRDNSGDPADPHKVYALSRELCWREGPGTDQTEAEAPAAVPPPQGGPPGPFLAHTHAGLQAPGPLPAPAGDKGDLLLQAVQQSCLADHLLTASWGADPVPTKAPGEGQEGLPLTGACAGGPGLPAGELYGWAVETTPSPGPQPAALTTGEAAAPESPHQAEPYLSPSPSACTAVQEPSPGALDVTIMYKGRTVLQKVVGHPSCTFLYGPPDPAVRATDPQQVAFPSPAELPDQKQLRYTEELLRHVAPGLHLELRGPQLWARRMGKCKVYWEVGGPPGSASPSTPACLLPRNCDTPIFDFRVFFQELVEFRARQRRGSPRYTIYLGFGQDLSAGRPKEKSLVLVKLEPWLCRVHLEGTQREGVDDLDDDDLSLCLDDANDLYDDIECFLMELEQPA
TTAGATCGCAGTATCGATTAGTGCTAG: 0.546 z-score
AGTGAATTAGGTTTCACTTTGTGCTAG: 7.14 z-score
TTAGGGTTCGGGTATCGGTTAGTGCTA: 1.42 z-score
GACGGTCTCCTAATCCTGACGTGCTAG: 0.228 z-score
GACGATGTCAGTATCGAGACGTGCTAG: -0.28 z-score
GACGGATTCGACTTTCGGGACGTGCTA: 3.07 z-score
GACGGTTTCGGTTCGGGGACGTGCTAG: 13.3 z-score
TCAGAACTGAGACTGGATTAGTGCTAG: -0.0413 z-score
CAGAAAATAGAAACTCGTGTTGTGCTA: 1.41 z-score
TCAGCTTTCCTCGTGATACTGTGCTAG: 0.592 z-score
TCAGCTGTCCTTTGCAAACTGTGCTAG: -0.459 z-score
TTAGATATAAGACTGGATTAGTGCTAG: -0.145 z-score
GACGGTATCGTTCTCCTGACGTGCTAG: 1.37 z-score
GACGATTTCAGTAGCGAGACGTGCTAG: 0.145 z-score
GACGAACTGAGACTGGAAACGTGCTAG: 0.237 z-score
TTAGATTTCCTACTGCTTTAGTGCTAG: 0.818 z-score
TTAGGACCGCTTTTCCTTTAGTGCTAG: 4.05 z-score
TTAGGACTGCTTATCCTGTAGTGCTAG: -0.138 z-score
GACGGTTTCGTGACTGGGGACGTGCTA: 2.48 z-score
TTAGATCTCACTATCGATTAGTGCTAG: 0.172 z-score
GACGGACTGGACACTGCGGACGTGCTA: -0.716 z-score

Sample 5
Target: CCND2, cyclin fold, Cln2 fusion (human)
Technique: yeast growth competition, sequencing
Medium: yeast
Notes: weak parent motif
Relative to: not given
Direction: higher = stronger binding
Quantity: normalised enrichment score
Parent: EXO1 docking peptide (human); KPECGRVQRAIFQ; partner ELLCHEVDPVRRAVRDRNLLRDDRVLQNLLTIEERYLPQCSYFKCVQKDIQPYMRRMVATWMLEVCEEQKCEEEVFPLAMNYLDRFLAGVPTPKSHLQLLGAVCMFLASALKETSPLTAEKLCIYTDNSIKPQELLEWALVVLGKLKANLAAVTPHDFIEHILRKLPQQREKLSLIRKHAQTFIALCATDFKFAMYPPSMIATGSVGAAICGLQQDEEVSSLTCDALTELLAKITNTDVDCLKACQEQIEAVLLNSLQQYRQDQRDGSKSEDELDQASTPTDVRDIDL
P2A: 0.113
K1A: 0.0361
F12A: 0.29
C4A: 0.000396
E3A: -0.311
Q8A: -0.124

Excerpt of the above (sample 3):
CCACTATC: -0.18
ACGGCATC: 0.292
GACGCATA: 0.208
CGCCATCA: 0.0549
GGACAAAA: 0.0629
AAGACTGT: -0.0766
ATAGGGCA: -0.218
AGTCCTAG: -0.258
ACTTTTCT: -0.267
